Results of several laboratories.
Every numbered part comes from another study and shows a few of its results, in no order. “And” joins repeats or separate records; there may be more than shown.
Sequence of UniProt O75914 (whole entry, looked up): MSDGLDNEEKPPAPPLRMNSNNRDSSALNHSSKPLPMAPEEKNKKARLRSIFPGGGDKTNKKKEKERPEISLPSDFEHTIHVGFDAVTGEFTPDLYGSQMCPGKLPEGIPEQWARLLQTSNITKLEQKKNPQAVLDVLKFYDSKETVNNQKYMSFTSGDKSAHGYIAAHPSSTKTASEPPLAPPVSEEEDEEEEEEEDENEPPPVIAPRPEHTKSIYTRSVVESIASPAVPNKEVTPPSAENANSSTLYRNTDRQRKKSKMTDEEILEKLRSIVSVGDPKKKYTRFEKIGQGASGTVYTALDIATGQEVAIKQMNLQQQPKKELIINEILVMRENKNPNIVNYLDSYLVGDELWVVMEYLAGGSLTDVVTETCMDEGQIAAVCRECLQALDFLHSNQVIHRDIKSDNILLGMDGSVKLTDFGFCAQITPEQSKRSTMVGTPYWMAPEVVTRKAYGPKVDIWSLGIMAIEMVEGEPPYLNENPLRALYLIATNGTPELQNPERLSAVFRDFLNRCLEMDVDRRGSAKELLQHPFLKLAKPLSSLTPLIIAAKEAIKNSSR
Sequence of UniProt Q8WTQ7 (whole entry, looked up): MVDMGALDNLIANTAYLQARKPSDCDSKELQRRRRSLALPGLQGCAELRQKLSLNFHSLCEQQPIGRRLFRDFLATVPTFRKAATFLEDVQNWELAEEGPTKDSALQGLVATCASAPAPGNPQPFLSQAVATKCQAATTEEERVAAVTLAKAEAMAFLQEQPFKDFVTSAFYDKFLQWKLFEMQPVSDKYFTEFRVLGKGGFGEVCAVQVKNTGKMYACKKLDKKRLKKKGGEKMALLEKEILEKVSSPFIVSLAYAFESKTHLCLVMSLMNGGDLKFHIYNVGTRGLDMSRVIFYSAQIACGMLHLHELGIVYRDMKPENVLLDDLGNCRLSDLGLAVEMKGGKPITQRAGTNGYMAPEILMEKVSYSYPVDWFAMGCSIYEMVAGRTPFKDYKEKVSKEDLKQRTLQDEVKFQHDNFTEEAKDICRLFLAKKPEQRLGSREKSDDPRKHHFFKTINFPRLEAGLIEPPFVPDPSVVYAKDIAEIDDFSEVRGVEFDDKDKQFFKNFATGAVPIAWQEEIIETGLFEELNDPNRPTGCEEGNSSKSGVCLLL
Sequence of UniProt O00506 (whole entry, looked up): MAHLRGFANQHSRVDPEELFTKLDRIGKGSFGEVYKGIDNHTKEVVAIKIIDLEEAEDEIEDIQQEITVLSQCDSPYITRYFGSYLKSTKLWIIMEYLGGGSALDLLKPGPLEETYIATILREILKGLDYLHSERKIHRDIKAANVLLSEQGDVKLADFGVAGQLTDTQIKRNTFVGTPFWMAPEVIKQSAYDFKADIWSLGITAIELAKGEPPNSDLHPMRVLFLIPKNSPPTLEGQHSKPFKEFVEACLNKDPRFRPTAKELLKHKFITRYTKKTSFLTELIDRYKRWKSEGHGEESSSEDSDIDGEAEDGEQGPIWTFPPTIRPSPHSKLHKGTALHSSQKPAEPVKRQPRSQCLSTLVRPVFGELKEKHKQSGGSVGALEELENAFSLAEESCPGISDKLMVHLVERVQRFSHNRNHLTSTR
Sequence of UniProt Q9Y2U5 (whole entry, looked up): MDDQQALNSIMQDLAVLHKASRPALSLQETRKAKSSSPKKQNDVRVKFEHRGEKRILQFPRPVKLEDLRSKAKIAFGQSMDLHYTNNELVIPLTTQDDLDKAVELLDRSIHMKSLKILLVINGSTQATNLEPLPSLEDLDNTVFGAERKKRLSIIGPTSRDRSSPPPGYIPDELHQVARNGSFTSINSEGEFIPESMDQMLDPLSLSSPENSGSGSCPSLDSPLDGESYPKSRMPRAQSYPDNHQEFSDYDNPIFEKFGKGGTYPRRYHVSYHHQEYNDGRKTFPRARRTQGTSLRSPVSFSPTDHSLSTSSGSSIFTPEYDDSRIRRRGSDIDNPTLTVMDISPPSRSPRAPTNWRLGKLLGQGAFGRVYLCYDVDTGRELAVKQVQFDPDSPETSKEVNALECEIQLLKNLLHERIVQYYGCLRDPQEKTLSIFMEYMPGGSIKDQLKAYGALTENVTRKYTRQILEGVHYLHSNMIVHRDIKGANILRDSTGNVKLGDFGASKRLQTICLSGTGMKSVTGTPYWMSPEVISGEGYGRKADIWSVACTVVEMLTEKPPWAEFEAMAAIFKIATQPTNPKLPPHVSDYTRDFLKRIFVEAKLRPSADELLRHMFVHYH
Sequence of UniProt Q96PN8 (whole entry, looked up): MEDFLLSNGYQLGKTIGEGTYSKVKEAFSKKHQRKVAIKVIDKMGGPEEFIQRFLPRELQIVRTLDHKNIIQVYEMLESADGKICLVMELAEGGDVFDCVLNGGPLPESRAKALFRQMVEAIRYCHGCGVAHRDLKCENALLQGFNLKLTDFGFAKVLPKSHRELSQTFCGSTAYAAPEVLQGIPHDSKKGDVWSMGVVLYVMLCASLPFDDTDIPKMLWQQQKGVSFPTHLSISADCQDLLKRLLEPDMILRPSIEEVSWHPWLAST

Study 1
Target: Serine/threonine-protein kinase ULK1 (ULK1, Homo sapiens, UniProt O75385)
Observed: enzyme activity
Mode: inhibitor
Concentration: 0.5 µM
Relative to: control
Endpoint: remaining activity
Target sequence (O75385 1-1050): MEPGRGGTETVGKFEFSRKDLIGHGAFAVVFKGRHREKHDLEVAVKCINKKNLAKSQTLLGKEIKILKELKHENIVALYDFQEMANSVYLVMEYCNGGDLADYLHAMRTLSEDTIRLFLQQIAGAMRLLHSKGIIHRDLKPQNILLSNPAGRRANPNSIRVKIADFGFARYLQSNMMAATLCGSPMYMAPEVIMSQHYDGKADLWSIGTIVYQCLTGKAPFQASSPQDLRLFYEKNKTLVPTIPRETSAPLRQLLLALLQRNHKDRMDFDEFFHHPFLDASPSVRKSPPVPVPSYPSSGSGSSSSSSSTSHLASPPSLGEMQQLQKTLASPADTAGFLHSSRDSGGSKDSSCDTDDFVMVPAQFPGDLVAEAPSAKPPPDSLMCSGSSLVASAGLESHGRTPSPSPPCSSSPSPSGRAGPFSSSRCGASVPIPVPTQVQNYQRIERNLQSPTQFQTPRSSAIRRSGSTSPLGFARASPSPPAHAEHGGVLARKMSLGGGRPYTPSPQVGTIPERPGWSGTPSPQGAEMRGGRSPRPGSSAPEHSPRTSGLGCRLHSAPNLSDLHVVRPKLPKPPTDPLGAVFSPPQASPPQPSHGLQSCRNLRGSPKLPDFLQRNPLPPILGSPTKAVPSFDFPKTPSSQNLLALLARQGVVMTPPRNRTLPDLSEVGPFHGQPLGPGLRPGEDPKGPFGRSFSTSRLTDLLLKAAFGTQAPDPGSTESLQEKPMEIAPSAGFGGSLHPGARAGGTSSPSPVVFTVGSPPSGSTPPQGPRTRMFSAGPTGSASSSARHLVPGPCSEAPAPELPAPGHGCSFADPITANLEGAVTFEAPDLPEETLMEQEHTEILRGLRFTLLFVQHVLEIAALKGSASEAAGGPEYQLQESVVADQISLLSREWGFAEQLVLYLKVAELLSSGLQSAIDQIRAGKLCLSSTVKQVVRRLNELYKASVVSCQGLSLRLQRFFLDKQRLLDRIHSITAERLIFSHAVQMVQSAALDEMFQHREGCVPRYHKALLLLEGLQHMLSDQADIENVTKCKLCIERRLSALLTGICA
Oc1ccc(Nc2nc(-c3ccc(Cl)cc3)cs2)cc1: 84.2%
CC#CC(=O)Nc1cc2c(Nc3ccc(F)c(Cl)c3)ncnc2cn1: 96.6%
Nc1nc(Nc2ccc(S(N)(=O)=O)cc2)nn1C(=O)c1c(F)cccc1F: 62.5%
O=C1Cc2c([nH]c3ccc([N+](=O)[O-])cc23)-c2ccccc2N1: 85.1%
CCc1[nH]c(-c2ccc(OC)cc2)nc1-c1ccncc1: 84.5%
CCCC(=O)Oc1ccc2[nH]c(C(=O)c3cc4ccccc4[nH]3)cc2c1: 103%
Nc1ncnc2c1cnn2-c1ccccc1: 99.5%
O=C1NC(=O)C(c2c[nH]c3ccccc23)=C1c1c[nH]c2ccccc12: 105%
Fc1ccc(-c2nc3n(c2-c2ccncc2)CCS3)cc1: 82.6%
Nc1nccc(-c2c(-c3ccc(F)cc3)ncn2C2CCNCC2)n1: 95.3%
O=S(=O)(NCCNC/C=C/c1ccc(Br)cc1)c1cccc2cnccc12: 102%
N#CC(=C(N)Sc1ccc(N)cc1)c1ccccc1C(F)(F)F: 99.6%
CC[n+]1c(/C=C/N(C)c2ccccc2)n(-c2ccccc2)c2ccc(-c3nc4ccccc4s3)cc21: 90.9%
Cc1ccc(NC2=CC(=O)c3sc(C)nc3C2=O)cc1: 114%
Cc1cc(Nc2nc(-c3ccccc3)nc3ccccc23)n[nH]1: 81.1%
NC(=O)c1ccc(N(C(N)=O)c2c(F)cccc2F)nc1-c1ccc(F)cc1F: 104%
CC(=O)c1ccc(N2CCOCC2)cc1O: 94.8%
COc1cc(Nc2c(C#N)cnc3cc(OCCCN4CCN(C)CC4)c(OC)cc23)c(Cl)cc1Cl: 79.1%
Cc1cncc2cccc(S(=O)(=O)N3CCCN(C(=O)CN)C[C@@H]3C)c12: 51.8%
CSc1nc(-c2ccnc(N[C@@H](C)c3ccccc3)c2)c(-c2ccc(F)cc2)[nH]1 (racemic): 110%
COc1ccc(S(=O)(=O)N(CCO)c2ccccc2CN(C)CC=Cc2ccc(Cl)cc2)cc1: 99.7%
CC(C)(C)n1nc(Cc2cccc3ccccc23)c2c(N)ncnc21: 99.2%

Study 2
Target: DNA polymerase theta, helicase domain (POLQ, Homo sapiens, UniProt O75417)
Sequence of UniProt O75417 (whole entry, looked up): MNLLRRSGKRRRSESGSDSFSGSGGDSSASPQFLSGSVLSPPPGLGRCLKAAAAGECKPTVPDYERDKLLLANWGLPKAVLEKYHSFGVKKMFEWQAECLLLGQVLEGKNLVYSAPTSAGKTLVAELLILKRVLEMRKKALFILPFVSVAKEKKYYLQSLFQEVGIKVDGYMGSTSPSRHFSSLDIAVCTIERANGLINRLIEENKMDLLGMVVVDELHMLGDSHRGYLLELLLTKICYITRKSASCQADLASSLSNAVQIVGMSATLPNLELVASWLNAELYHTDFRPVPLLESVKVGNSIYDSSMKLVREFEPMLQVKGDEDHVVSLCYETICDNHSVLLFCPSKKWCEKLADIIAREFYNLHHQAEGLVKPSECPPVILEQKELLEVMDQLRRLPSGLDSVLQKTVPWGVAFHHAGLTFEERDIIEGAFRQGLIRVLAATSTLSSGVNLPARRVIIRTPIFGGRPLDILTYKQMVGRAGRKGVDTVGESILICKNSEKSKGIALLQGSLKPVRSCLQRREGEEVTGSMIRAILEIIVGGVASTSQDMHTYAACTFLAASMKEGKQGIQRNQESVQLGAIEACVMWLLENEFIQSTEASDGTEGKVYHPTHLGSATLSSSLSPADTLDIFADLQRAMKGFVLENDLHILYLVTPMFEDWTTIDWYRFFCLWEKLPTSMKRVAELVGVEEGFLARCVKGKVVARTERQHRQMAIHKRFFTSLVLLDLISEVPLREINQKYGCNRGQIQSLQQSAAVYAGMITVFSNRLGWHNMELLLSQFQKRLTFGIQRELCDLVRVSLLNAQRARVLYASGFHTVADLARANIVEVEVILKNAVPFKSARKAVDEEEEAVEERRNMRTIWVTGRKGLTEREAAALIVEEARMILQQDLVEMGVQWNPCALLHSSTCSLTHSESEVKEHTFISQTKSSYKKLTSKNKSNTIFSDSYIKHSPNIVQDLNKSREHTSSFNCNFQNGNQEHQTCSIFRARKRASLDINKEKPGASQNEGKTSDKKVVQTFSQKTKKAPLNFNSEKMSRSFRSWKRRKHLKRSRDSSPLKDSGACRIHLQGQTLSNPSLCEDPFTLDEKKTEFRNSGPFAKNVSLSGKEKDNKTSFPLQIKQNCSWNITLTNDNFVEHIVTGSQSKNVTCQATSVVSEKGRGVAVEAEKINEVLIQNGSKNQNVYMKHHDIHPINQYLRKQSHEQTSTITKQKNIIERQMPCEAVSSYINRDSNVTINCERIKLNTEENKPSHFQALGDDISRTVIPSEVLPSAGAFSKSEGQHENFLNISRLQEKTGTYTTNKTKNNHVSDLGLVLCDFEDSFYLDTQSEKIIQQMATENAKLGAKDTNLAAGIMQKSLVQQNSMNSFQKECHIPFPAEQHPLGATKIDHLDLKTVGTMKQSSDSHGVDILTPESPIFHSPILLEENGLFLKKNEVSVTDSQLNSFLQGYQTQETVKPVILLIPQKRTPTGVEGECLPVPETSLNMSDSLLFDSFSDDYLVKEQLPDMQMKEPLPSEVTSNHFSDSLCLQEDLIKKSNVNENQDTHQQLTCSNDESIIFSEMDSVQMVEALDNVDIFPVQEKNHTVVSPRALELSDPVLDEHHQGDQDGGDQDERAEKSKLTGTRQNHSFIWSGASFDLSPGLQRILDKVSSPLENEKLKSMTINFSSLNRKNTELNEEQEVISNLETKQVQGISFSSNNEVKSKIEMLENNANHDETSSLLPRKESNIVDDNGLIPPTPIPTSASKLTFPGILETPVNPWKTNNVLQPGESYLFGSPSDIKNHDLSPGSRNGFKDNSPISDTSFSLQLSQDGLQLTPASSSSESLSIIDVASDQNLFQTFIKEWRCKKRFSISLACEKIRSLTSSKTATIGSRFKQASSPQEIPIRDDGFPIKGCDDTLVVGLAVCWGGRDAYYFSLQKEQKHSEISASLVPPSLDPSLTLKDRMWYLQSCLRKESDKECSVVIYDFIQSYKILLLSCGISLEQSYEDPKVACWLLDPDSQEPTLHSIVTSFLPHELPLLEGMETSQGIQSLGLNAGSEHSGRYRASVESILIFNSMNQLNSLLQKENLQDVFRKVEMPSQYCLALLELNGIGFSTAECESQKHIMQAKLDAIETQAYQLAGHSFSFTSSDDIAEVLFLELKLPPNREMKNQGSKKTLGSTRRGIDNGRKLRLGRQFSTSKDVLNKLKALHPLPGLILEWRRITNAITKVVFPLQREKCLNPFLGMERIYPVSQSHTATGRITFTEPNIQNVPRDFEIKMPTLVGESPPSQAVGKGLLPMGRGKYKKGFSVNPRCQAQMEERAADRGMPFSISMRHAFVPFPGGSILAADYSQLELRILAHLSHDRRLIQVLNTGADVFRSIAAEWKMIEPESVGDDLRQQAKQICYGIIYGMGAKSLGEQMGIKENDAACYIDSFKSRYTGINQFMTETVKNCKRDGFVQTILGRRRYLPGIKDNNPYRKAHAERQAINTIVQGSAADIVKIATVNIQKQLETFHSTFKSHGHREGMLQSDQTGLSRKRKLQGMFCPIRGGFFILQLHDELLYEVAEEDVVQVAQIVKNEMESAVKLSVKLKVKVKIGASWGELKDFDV
Mode: inhibitor
Concentration: concentration not given
With: with ssDNA
Endpoint: remaining activity
Cc1ccc(C(=O)c2cc(O)c(O)c([N+](=O)[O-])c2)cc1: 49.9% and 51.8%
CCOc1nc2cccc(C(=O)OCc3oc(=O)oc3C)c2n1Cc1ccc(-c2ccccc2-c2noc(=O)[nH]2)cc1: 42.6% and 41.8%
Cc1ccc(C(=O)Nc2ccccc2C(=O)O)cc1S(=O)(=O)N1CCCCCC1: 71.5% and 66%
Cc1ccc(-c2n[nH]c3c2C(c2ccccc2Cl)N(c2ccc(C(=O)O)cc2)C3=O)cc1 (stereo not drawn): 71.9% and 80%
Cc1c(Cl)cccc1NC(=O)CSc1ncc(S(=O)(=O)c2ccc(C(C)C)cc2)c(=O)[nH]1: 70.3% and 68.2%
COC(=O)[C@]12CCC(C)(C)C[C@H]1[C@H]1C(=O)C=C3[C@@]4(C)C=C(C#N)C(=O)C(C)(C)[C@@H]4CC[C@@]3(C)[C@]1(C)CC2: 42.9% and 41%
CCCCCCCCCCC/C=C\C(C)(C)/C=C\CCCC(=O)O: 95.8% and 99.9%
CCCCCCCCCCCCCCCC(=O)OC[C@H](O)[C@H]1OC(=O)C(O)=C1O: 19.3% and 26.8%

Study 3
Cell line: HaCaT
Concentration: 100 µM
Time: 36 h
Endpoint: viability
CN(C)CCCOc1nn(Cc2ccccc2)c2ccccc12: 5.1%
OC[C@H]1O[C@@H](c2ccc(Cl)c(Cc3ccc(O[C@H]4CCOC4)cc3)c2)[C@H](O)[C@@H](O)[C@@H]1O: 91.1%
COC1C(OC(N)=O)C(O)C(Oc2ccc3c(O)c(NC(=O)c4ccc(O)c(CC=C(C)C)c4)c(=O)oc3c2C)OC1(C)C (stereo not drawn): 81.5%
O=C(O)c1ccc(S(=O)(=O)N(Cl)Cl)cc1: 84.3%
NCCc1ccc(O)c(O)c1: 98.5%
CCn1cc(C(=O)O)c(=O)c2cc3c(cc21)OCO3: 96.8%
CC(/C=C/C=C(\C)C(=O)O[C@@H]1O[C@H](CO[C@@H]2O[C@H](CO)[C@@H](O)[C@H](O)[C@H]2O)[C@@H](O)[C@H](O)[C@H]1O)=C\C=C\C=C(C)\C=C\C=C(/C)C(=O)O[C@@H]1O[C@H](CO[C@@H]2O[C@H](CO)[C@@H](O)[C@H](O)[C@H]2O)[C@@H](O)[C@H](O)[C@H]1O: 122%
COc1cc2nc(N(C)CCCNC(=O)C3CCCO3)nc(N)c2cc1OC (stereo not drawn): 54.3%
CC(C)C(=O)c1c(C(C)C)nn2ccccc12: 74%
CC(=O)N[C@@H](CCC(N)=O)C(=O)O: 90.2%
C=CC[N+]1([C@H]2C[C@H]3[C@@H]4CC[C@H]5C[C@H](O)[C@@H](N6CCOCC6)C[C@]5(C)[C@H]4CC[C@]3(C)[C@H]2OC(C)=O)CCCC1: 72.8%
CC(=O)OCC(=O)[C@@]1(O)CC[C@H]2[C@@H]3CCC4=CC(=O)CC[C@]4(C)[C@H]3C(=O)C[C@@]21C: 86.9%
CC(=O)Nc1ccc(O)cc1: 76.7%
N#Cc1ccc(C(c2ccc(C#N)cc2)n2cncn2)cc1: 87.4%
CCC1(C)CC(=O)NC1=O (stereo not drawn): 94.1%
CCN(CCCCOC(=O)c1ccc(OC)c(OC)c1)C(C)Cc1ccc(OC)cc1 (stereo not drawn): 28.2%
COc1c(C)c2c(c(O)c1C/C=C(\C)CCC(=O)O)C(=O)OC2: 63.8%
CNC[C@H](O)c1cccc(O)c1: 83.3%
CC(=O)OCC(=O)[C@@]1(O)CC[C@H]2[C@@H]3CCC4=CC(=O)CC[C@]4(C)[C@@]3(F)[C@@H](O)C[C@@]21C: 93%
CCN(CC)CCNC(=O)c1cc(S(C)(=O)=O)ccc1OC: 89.2%
Cc1noc(NS(=O)(=O)c2ccc(N)cc2)c1C: 58.9%
COc1cc2nc(N3CCN(C(=O)C4COc5ccccc5O4)CC3)nc(N)c2cc1OC (stereo not drawn): 5.73%
C=C(c1ccc(C(=O)O)cc1)c1cc2c(cc1C)C(C)(C)CCC2(C)C: 6.44%

Study 4
SMILES: Nc1cnc(N2CCc3cc(S(=O)(=O)Nc4c(F)cc(Cl)cc4F)cc(N4CCCC4=O)c32)nc1
Observed: cell-free assay
Method: competition with immobilised ligand
Concentration: 1 µM
Endpoint: remaining binding
Testis-specific serine/threonine-protein kinase 3 (TSSK3, Homo sapiens, UniProt Q96PN8): 100%
Hormonally up-regulated neu tumor-associated kinase (HUNK, Homo sapiens, UniProt P57058): 99%
Peripheral plasma membrane protein CASK (CASK, Homo sapiens, UniProt O14936): 94%
Ribosomal protein S6 kinase alpha-5, N-terminal kinase domain (RPS6KA5, Homo sapiens, UniProt O75582): 95%
Mitogen-activated protein kinase kinase kinase 9 (MAP3K9, Homo sapiens, UniProt P80192): 100%
Tyrosine-protein kinase BTK (BTK, Homo sapiens, UniProt Q06187): 100%
Microtubule-associated serine/threonine-protein kinase 1 (MAST1, Homo sapiens, UniProt Q9Y2H9): 97%
Ephrin type-A receptor 6 (EPHA6, Homo sapiens, UniProt Q9UF33): 98%
Tyrosine-protein kinase JAK2, JH1 (JAK2, Homo sapiens, UniProt O60674): 100%
Tyrosine-protein kinase ABL1, non-phosphorylated (ABL1, Homo sapiens, UniProt P00519, Q252H): 100%
Tyrosine-protein kinase receptor UFO (AXL, Homo sapiens, UniProt P30530): 69%
5'-AMP-activated protein kinase catalytic subunit alpha-2 (PRKAA2, Homo sapiens, UniProt P54646): 100%
Rhodopsin kinase GRK7 (GRK7, Homo sapiens, UniProt Q8WTQ7): 99%
Serine/threonine-protein kinase Nek9 (NEK9, Homo sapiens, UniProt Q8TD19): 98%
Ephrin type-A receptor 3 (EPHA3, Homo sapiens, UniProt P29320): 78%
Cyclin-dependent kinase 8 (CDK8, Homo sapiens, UniProt P49336): 100%
Mitogen-activated protein kinase 12 (MAPK12, Homo sapiens, UniProt P53778): 100%
Serine/threonine-protein kinase 25 (STK25, Homo sapiens, UniProt O00506): 88%
3-phosphoinositide-dependent protein kinase 1 (PDPK1, Homo sapiens, UniProt O15530): 98%
Mitogen-activated protein kinase kinase kinase 2 (MAP3K2, Homo sapiens, UniProt Q9Y2U5): 100%
Serine/threonine-protein kinase tousled-like 1 (TLK1, Homo sapiens, UniProt Q9UKI8): 100%
Serine/threonine-protein kinase NIM1 (NIM1K, Homo sapiens, UniProt Q8IY84): 100%
Serine/threonine-protein kinase PAK 3 (PAK3, Homo sapiens, UniProt O75914): 100%
Tyrosine-protein kinase Fyn (FYN, Homo sapiens, UniProt P06241): 58%
Phosphatidylinositol 4,5-bisphosphate 3-kinase catalytic subunit alpha isoform (PIK3CA, Homo sapiens, UniProt P42336, C420R): 84%

A few entries again (study 1):
CC[n+]1c(/C=C/N(C)c2ccccc2)n(-c2ccccc2)c2ccc(-c3nc4ccccc4s3)cc21: 90.9%
Cc1ccc(NC2=CC(=O)c3sc(C)nc3C2=O)cc1: 114%
Cc1cc(Nc2nc(-c3ccccc3)nc3ccccc23)n[nH]1: 81.1%
NC(=O)c1ccc(N(C(N)=O)c2c(F)cccc2F)nc1-c1ccc(F)cc1F: 104%
